Measured values from different studies.
Each numbered part is a random draw from the data of one study; scales do not carry over between parts.
UniProt Q9UQM7, sequence (whole entry, looked up): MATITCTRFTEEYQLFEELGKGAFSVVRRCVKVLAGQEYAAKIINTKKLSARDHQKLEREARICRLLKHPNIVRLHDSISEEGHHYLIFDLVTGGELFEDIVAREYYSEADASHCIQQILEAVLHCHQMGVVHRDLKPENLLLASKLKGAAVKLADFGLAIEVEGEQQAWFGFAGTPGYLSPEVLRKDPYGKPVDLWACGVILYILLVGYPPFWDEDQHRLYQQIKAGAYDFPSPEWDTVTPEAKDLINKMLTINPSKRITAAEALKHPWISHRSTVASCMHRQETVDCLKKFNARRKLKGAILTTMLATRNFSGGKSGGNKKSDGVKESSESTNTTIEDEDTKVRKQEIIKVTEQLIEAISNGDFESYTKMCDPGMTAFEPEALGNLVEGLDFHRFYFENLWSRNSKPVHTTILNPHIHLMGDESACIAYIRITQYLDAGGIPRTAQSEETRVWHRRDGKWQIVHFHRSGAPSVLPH

Series 1
Target: D(1A) dopamine receptor (DRD1, Homo sapiens, UniProt P21728)
UniProt P21728, sequence (whole entry, looked up): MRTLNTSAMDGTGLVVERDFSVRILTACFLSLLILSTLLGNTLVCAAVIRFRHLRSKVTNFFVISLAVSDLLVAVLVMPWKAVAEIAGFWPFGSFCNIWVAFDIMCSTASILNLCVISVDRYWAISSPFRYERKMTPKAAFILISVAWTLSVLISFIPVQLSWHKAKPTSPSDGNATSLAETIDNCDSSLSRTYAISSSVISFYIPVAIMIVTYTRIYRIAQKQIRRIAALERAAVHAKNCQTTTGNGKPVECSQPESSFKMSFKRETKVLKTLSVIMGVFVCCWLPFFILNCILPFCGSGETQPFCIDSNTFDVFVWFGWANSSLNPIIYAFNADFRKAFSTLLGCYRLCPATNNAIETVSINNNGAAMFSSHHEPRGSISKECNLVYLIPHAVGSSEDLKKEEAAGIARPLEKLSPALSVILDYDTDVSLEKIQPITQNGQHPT
Observed: binding
Technique: radioligand binding
Tested at: 10 µM
SMILES | inhibition [%]
C[C@H](NC(=O)c1cnc2n1[C@](C)(Cc1ccc(C#N)cc1)C(=O)N2c1cc(Cl)c(F)c(Cl)c1)C(=O)NC1(c2ccccn2)CC1 | 1.26
CNC(=O)c1ccc(Nc2ncc(C(F)(F)F)c(NCc3nccnc3N(C)S(C)(=O)=O)n2)cc1 | -53.3
CN1C(=O)[C@@H](N2CCc3cn(Cc4ccccc4)nc3C2=O)COc2ccccc21 | 18.8
Cc1cc(-n2nc(Cc3cc(F)cc(C(F)(F)F)c3)nc2C)ccc1C(N)=O | -4.72
O=C(O)c1cc(-c2ccc(C3CCNCC3)cc2)c2ccc(-c3ccc(C(F)(F)F)cc3)cc2c1 | 71.4

Series 2
Cell line: A-375
Tested at: 100 µM
Time: 36 h
Compound | viability [%]
Cc1c(NC(=O)c2cccnc2)c(=O)n(-c2ccccc2)n1C | 107
O=c1cc(-c2ccccc2)oc2cc(O)c(O)c(O)c12 | 29.4
C[N+]1(CCCCC[N+]2(C)CCCC2)CCCC1 | 114
CCn1cc(C(=O)O)c(=O)c2cc(F)c(N3CCNCC3)cc21 | 89.2
CC(C(=O)O)c1ccc(CC2CCCC2=O)cc1 (stereo not shown) | 119
CC(C)c1ccc2oc3nc(N)c(C(=O)O)cc3c(=O)c2c1 | 93.2

Series 3
Host: human
Sample: microsomes or S9
Tested at: 2 µM
Time: 0.5 h
SMILES | remaining compound [%]
COc1cc(=O)n(C)cc1C(=O)N1CCc2c(cnc3cc(C)nn23)C1 | > 99
CC(O)CN(Cc1cc(F)cc(Br)c1)C(C)C (stereo not shown) | 15.6
Cc1nccn1S(=O)(=O)c1ccc(C(C)(C)C)cc1 | 42.1
Cc1cc(C)cc(-n2nc(NC(=O)NC3(c4noc(C)n4)CCC3)cc2C)c1 | > 100
CCOc1cccc2c1OC1(CCN(CC)CC1)N1N=C(c3ccccc3)CC21 (stereo not shown) | 69.6
COc1cc2c(Nc3ccc(Br)cc3F)ncnc2cc1OCCCN1CCOC(CO)C1 (stereo not shown) | 95

Series 4
Target: Proto-oncogene tyrosine-protein kinase ROS (ROS1, Homo sapiens, UniProt P08922)
UniProt P08922, sequence (whole entry, looked up): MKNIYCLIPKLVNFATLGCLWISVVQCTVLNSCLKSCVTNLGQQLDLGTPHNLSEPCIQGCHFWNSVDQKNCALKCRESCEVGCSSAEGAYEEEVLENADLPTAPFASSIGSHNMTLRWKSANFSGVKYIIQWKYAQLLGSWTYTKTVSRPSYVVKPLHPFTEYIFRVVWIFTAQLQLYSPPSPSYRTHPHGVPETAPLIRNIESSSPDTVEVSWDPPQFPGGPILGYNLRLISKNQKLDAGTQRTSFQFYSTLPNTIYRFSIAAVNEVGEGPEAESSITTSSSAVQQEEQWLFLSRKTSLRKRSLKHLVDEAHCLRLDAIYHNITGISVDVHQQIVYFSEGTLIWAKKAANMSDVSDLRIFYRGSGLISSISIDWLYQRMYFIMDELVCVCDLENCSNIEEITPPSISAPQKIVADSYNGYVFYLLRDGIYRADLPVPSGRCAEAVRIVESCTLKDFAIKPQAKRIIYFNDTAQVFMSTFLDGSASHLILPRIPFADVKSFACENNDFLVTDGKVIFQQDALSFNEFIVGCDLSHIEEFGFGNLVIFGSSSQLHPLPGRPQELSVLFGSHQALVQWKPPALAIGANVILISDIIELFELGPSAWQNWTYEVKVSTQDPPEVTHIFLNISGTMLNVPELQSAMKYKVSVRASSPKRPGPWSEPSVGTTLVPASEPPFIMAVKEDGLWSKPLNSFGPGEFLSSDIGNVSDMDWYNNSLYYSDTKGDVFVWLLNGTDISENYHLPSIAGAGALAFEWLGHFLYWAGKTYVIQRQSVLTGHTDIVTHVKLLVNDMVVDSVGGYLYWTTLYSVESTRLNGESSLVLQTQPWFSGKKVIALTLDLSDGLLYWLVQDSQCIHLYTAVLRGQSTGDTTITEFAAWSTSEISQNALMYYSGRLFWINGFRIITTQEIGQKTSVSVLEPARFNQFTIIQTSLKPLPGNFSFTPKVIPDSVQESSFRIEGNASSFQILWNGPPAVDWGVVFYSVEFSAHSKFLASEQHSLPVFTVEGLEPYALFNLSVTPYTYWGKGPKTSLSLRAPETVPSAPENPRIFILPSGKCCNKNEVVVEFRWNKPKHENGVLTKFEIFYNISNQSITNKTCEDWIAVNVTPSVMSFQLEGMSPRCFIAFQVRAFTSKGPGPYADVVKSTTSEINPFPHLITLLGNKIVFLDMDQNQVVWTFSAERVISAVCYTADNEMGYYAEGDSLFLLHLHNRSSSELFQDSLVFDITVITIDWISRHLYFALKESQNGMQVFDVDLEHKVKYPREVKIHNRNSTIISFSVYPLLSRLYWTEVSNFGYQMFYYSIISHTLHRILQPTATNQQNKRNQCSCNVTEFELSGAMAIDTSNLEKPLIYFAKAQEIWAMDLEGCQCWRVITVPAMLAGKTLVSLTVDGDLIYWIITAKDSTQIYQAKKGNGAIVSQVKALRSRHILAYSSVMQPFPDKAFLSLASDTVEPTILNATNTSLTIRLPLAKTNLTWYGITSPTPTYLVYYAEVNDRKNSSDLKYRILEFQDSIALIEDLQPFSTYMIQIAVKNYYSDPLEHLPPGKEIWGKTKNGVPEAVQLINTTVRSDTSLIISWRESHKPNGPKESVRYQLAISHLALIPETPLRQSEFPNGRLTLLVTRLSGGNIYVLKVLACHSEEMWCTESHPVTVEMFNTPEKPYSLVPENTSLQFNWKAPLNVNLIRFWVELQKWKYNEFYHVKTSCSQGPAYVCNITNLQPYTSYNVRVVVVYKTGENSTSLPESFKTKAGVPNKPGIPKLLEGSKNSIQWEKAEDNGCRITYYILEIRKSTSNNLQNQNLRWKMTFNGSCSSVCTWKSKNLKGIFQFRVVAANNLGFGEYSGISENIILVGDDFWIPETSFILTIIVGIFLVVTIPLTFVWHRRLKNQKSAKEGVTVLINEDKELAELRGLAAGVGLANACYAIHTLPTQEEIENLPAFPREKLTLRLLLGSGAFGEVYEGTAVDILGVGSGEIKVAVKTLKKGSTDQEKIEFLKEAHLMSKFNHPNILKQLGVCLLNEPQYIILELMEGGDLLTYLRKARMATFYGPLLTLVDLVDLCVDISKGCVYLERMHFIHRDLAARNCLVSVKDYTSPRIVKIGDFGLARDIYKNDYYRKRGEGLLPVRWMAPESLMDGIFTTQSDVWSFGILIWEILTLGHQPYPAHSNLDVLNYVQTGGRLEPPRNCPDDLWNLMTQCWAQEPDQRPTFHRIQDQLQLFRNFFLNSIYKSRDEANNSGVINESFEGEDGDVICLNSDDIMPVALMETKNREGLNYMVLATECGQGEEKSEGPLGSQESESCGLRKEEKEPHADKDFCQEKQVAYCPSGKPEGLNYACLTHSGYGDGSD
Observed: enzyme activity
Action: inhibitor
Tested at: 0.5 µM
Relative to: control
Compound | remaining activity
COc1ccc(OC)c2c(=S)c3ccccc3[nH]c12 | 103%
O=C1NC(=O)C(c2cn(CCCn3ccnc3)c3ccccc23)=C1Nc1ccccc1 | 78.7%
O=S(=O)(c1cccc2cnccc12)N1CCCNCC1 | 101%
O=C(O)c1ccc2c3c1cccc3c(=O)n1c3ccccc3nc21 | 95.2%
Oc1ccc(-c2nc(-c3ccncc3)c(-c3ccc(F)cc3)[nH]2)cc1 | 89.8%
COc1cc2ncnc(Nc3ccc(Oc4ccccc4)cc3)c2cc1OC | 95.3%
COc1cc2ncnc(Nc3ccc(F)c(Cl)c3)c2cc1OCCCN1CCOCC1 | 92.3%
N#CC(C#N)=C(N)/C(C#N)=C/c1ccc(O)cc1 | 97.1%
Cc1nc(-c2ccccc2)c(-c2ccncc2)o1 | 96%
COc1ccc(C(=O)Nc2sc3c(c2C(N)=O)CCCC3)cc1OC | 78.8%
NCCNc1ncc(C(N)=O)c(Nc2cccc(C(F)(F)F)c2)n1 | 86.6%
CCOC(=O)c1c(C)[nH]c(/C=C2\C(=O)Nc3ccccc32)c1C | 99.1%
O=C(CCCc1ccc(-c2ccccc2F)cc1)Nc1ccc(O)cc1 | 98.4%
COc1ccc(CNC(=O)Nc2ncc([N+](=O)[O-])s2)cc1 | 100%
O=C(Nc1cccc(Nc2cc(Nc3cccc(C(F)(F)F)c3)ncn2)c1)C1CC1 | 93.5%
CN(C)c1ccc(C=C2C(=O)Nc3ccccc32)cc1 | 94.9%

Single results of other studies
Compound | target | observed | action | technique | quantity | value
Cc1cc(-c2ccc(/N=N/c3ccc4c(S(=O)(=O)O)cc(S(=O)(=O)O)c(N)c4c3O)c(C)c2)ccc1/N=N/c1ccc2c(S(=O)(=O)O)cc(S(=O)(=O)O)c(N)c2c1O | Calcium/calmodulin-dependent protein kinase type II subunit alpha (CAMK2A, Homo sapiens, UniProt Q9UQM7) | enzyme activity | inhibitor | ADP detection | IC50 | 197 nM

Excerpt of the above (series 4):
Compound | remaining activity
O=C(O)c1ccc2c3c1cccc3c(=O)n1c3ccccc3nc21 | 95.2%
COc1ccc(OC)c2c(=S)c3ccccc3[nH]c12 | 103%
COc1cc2ncnc(Nc3ccc(F)c(Cl)c3)c2cc1OCCCN1CCOCC1 | 92.3%
COc1ccc(CNC(=O)Nc2ncc([N+](=O)[O-])s2)cc1 | 100%
Cc1nc(-c2ccccc2)c(-c2ccncc2)o1 | 96%
